Results pooled from the literature.
A part holds a random share of what one study measured. Positions count from the first letter of the parent shown.

Sample 1 — method: universal PBM; form: double-stranded DNA, one strand shown; matrix: in vitro; concentration: not given; reading: higher = stronger binding
Target: Sal-like protein 4, full length isoform B (SALL4, Homo sapiens, UniProt Q9UJQ4-2, residues 1-616)
Notes: 8-mer, flanks averaged, mean of replicates
Sequence	E-score
ATCCTACC	-0.116
CTGGTGGC	-0.314
AGAGCTCC	-0.292
CAGCTATA	0.147
CCAACGAA	-0.129
ACTCTAGC	-0.0137
CGGACTAG	-0.175
ACTGATAC	-0.0774
AACTATTG	0.336
AACAATTC	0.119
ATCTTTTA	0.284
GTCTCAAC	0.0167
ATGCGCTC	-0.0972
CTTCTAAC	0.00565
CCCCGGGG	-0.459

Sample 2 — method: RNA Bind-n-Seq; form: RNA; matrix: in vitro; concentration: not given; baseline: input RNA pool; reading: higher = stronger binding
Target: RING finger protein unkempt homolog, zinc fingers 1-6, GST-SBP tag (UNK, Homo sapiens, UniProt Q9C0B0, residues 30-357)
Chain of UniProt Q9C0B0 (30-357, looked up): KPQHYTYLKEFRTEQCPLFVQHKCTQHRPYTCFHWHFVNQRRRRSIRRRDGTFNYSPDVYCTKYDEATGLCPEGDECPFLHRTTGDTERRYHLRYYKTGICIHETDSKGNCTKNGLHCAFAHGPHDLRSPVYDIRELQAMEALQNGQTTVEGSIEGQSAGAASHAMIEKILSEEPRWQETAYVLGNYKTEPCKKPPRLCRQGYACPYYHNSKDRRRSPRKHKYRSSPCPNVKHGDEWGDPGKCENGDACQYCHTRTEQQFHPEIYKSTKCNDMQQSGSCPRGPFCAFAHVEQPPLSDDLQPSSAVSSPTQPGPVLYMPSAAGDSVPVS
Notes: RNA with constant flanks, human-mouse chimeric sites, ends assumed
Sequence	bound/input enrichment
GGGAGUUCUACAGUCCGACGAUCCCUGCUCAGAUCACCAUGAAAGUAAUCCAAGGCUUGUAUAGUGGGGUCACCACAGUGGAACUGGACACCCUGGCUGCUGAGACAGCCGCGACCUUGACCACGAAGCACCCUGACUAUGCCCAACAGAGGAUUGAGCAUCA	0.163 ratio
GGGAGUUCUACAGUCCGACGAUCGGCUGCUGGUGACUGUCCUGGAGUGGCUGGAGUUCCCGCCGGAGCGCGGCCAGACUAAUUAUAGAAAAUGCCAAGUAGGAAGUUUGUUGAGGGUGAAGUGGUAAGAGGCCGAUGGCCUGGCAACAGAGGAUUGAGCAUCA	5.87 ratio
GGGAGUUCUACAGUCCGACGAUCCAGGGCACAGCACCUACCCCCUCCUCCUUUCCACACCUGCAAACCCUUUUACUUGGGCUGAAUAUUUAGUGUAAUUACAUCUCAGCUUUGAGGGCUCCUGUGGCAAAUUCCCGGAUUAAACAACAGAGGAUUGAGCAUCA	0.736 ratio
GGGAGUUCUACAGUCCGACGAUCUUGAAAACUGAUUCAAGUAAGUUUGAGUAUCACAAUGUUAGCUUUCUAAUUCCACACAGAUAGUUUUUUUUUACAGUUUAUAAUCUGACAUCACCCCAGCGCCAUUUGUAAAGAGCAACUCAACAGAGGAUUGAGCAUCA	16.6 ratio
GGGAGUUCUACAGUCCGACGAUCAAAGAAUGGAUAGAGUGUGCACACGGGAUCGGUGGGACCCGGGCGAAAAAGGAGUGCAAGAUAGAAUUCGAUGACUUCGAAGAGUGCUUGCUUCGGUACAAAACGAUGAGGCGAAUGCAUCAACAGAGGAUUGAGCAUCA	0.571 ratio
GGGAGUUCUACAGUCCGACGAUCGCGAACAGGACUACAGAAAUGCUGGUAAUUUCAGUCACUUGCUGAUGACUUCUGAUGUCCCAGCAAAUGUUGGCAUUGUUGACUGCUCUGUGAAGACUUCUGAGGACCCACGUCUAAGGUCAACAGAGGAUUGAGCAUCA	0.0747 ratio
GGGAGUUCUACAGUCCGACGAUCCACGUGUCUGCAGUACUUGAUGUGGACUACUCUCCCACUGGGAAGGAAUUUGUGUCUGCUAGUUUCGAUAAGUCUAUUAGAAUCUUUCCUGUAGACAAGAGCCGAAGCAGGGAAGUGUAUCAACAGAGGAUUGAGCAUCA	1.25 ratio
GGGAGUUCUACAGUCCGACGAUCAGAAUCUUGGGACUGUUUUACUUAAUUGGUCAUUGAUAGCUUAACAAACAUGGAGAUGAGAUUAGAAAUCUUGACAUCAACAGGUAUCAAGCAGAAAAAACCAUGGCCACGUGUCUCCUGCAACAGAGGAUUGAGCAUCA	0.125 ratio

Sample 3 — target: CCND1, cyclin fold, Cln2 fusion (human); method: yeast growth competition, sequencing; matrix: yeast; notes: strong parent motif; baseline: not given; reading: higher = stronger binding
Parent: INSM1 docking peptide (human); PKAIRKLHFEDEV; partner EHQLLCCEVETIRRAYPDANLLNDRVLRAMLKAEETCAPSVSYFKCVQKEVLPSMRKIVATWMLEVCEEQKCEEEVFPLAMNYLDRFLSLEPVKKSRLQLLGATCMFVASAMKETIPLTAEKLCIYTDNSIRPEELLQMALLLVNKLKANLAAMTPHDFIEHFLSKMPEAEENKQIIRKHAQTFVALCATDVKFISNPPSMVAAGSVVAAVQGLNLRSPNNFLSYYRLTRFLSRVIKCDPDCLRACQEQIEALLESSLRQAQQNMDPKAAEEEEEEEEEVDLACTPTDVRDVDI
Change	normalised enrichment score
A3R	0.203
D11R	1.83
I4L	1.04
K6N	1.85
F9W	1.39
L7V	0.264
H8D	5.39
A3E	0.475
A3P	2.59
K2I	2.83
I4N	2.12
E10Q	2.89
E10N	3.75
L7S	-0.0222
E10S	3.58
E10R	1.67

Mixed results
Substance	target	test	test system	conditions	scale	quantity	value
PhoQ, residues 284 288 289 292 302 303 TTCLQL	PhoP, residues 12 14 15 18 19 VQGLL (Escherichia coli, UniProt P23836)	Sort-seq, item: YFP reporter	E. coli	PhoQ-PhoP variant library, with: 10 µM Mg2+	baseline: high Mg2+ state, higher = stronger signaling	fold induction	9.6

For quick reference, copied from above (sample 3):
Change	normalised enrichment score
I4L	1.04
A3R	0.203
L7V	0.264
